Results gathered from unrelated publications.
Every numbered part comes from another study and shows a few of its results, in no order.

Study 1
Target: Ras GTPase-activating protein-binding protein 1, full length (G3BP1, Homo sapiens, UniProt Q13283)
UniProt Q13283, sequence (whole entry, looked up): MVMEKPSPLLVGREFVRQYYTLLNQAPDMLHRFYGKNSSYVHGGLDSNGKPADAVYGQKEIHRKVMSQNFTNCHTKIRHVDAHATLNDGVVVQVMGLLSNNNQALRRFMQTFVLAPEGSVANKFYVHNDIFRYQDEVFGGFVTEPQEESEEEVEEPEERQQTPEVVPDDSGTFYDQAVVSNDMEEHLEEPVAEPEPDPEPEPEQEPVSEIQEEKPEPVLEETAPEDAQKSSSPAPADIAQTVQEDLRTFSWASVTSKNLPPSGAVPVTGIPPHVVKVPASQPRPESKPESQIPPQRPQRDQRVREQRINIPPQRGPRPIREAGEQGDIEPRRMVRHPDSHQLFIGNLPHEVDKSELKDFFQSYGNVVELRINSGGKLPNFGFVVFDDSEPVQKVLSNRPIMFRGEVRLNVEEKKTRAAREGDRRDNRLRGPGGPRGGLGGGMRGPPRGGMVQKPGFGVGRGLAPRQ
Method: RNA Bind-n-Seq
Molecule type: RNA
Medium: in vitro
Concentration: 200 nM
Setting: whole 134-nt RNA, ends assumed
Added: 150 mM LiCl
Reference: input library
Reading: higher = stronger binding
Each molecule: 7-deaza-guanosine replaces G
Strand | log2 enrichment
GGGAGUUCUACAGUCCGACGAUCUGGGAGGUGGAUUUUGUUGAUUUUUUUAGCUCAUUUCCAGGGGUGGGAAUUUUUUUUUAAUAUGUGUCAUGAAUAAAGUUGUUUUUGAAAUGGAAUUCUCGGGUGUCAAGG | -0.114
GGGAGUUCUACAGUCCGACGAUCGCAGGAAGUAAAAACAAAUGGAAAUGCUUCGGAUAGUGGCAGGGGUGGGGGUUGCUAGGGAAAGGGUGGGAUGGGAGUGGGUAAAGAGUUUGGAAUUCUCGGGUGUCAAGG | -0.369
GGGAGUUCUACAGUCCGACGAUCAGUCCUGUGCUACACAUCGUAUGUACCGAAUCGGUUUUUGGAAAAAAAGGUUUUUGGAAAGUAUUAUGUUACGCCGUUCGGAUCUGCACUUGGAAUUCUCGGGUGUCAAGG | -3.16
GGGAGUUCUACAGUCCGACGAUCCCUCAAGUCCUGUGCUACACAUCGUAUGUACCGAAUCGGGGCGGGGCGGCGGGAAAGUAUUAUGUUACGCCGUUCGGAUCUGCACUUCCAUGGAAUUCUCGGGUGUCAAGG | 0.0889
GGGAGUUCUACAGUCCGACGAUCCACAGACAACACGCACCCACACAGACACAGUGGGAAGGGGUUGGGAUGGGGACAGGGUGCACAGCAGGGCGGGGUAGGACCCCAGCCCCUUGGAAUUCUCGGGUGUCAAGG | -1.06
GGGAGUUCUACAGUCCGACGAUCUACAGACAACACGCACCCACACAGACACAGAGGGAAGGGGUUGGGAUGGGGACAGGGUGCACAGCAGGGCGGGGUAGGACCCCAGCCCCUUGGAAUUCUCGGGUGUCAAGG | 0.0974
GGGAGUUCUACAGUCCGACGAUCAAGUCCUGUGCUACACAUCGUAUGUACCGAAUCGGGUUUUGGGUUUUGGGUUUUGGGAAAGUAUUAUGUUACGCCGUUCGGAUCUGCACUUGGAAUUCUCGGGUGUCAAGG | 0.0688
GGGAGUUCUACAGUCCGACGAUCUUUGAAGGUGAUUUCUGGCCCAAUGUGUUAGAAGAGAGCAUUAAGGAACUAGAACAAGAAGAAGAGGAGAGGAAAAAGGAAGAGAGCACUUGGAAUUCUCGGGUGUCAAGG | -1.95

Study 2
Target: RNA binding protein fox-1 homolog 2, RRM domain, GST-SBP tag (RBFOX2, Homo sapiens, UniProt O43251-10, residues 100-194)
Method: RNA Bind-n-Seq
Molecule type: RNA
Medium: in vitro
Concentration: 365 nM
Setting: natural RNA segment, single round, ends assumed
Reference: no-protein control
Reading: higher = stronger binding
Construct (chain): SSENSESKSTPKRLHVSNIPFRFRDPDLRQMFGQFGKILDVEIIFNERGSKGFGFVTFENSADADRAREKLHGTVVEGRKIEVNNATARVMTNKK
Strand | RBNS enrichment (R)
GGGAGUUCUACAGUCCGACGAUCCCCCCACUCUGCUGUACUGAUAGGAUUUAGUUGUGUUUUAGGACAUUGCAAAUCUUCUAGAAGUUCUCCCCCAAAUCAGGUCAAUGUGUGCCCUCCUGAGCUCCCACCCAUGGAAUUCUCGGGUGCCAA | 0.475
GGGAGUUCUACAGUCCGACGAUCAAUGUCCCUGGUAUCUCUGUGGUCAACUAAGAGUGGUUCUACAAAGAUAGUCCUCAGUGAAAACAGGCUAUCUCCUCCUGGGUCAUCUCAGGUCUCAGGCACCAGUCCAUUGGAAUUCUCGGGUGCCAA | 0.241
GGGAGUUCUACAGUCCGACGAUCGACGGGAAGAGGAGGCCUCUGGACCUGCUGGUCUGCACUGACAGCCUGAAGGGUCUACACCCUCGGCUCACCUAAGUGCCCUGUGCUGGUUGCCAGGCGCAGAGGGGAGGUGGAAUUCUCGGGUGCCAA | 0.386
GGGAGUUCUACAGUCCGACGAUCGGAGGGUUCUAGUCUGUGCAAACAUUAAUAAAAAUUAUUUUGAAUUUUAGGAUUUUAAAAUGGUUGAAUUAAUUUAAAAUUGUCUUAAUUCUACUCUUAAUACUUCACUGUGGAAUUCUCGGGUGCCAA | 0.459
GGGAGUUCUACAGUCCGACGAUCAAAAAAAAAAAAAAAAGAGUUUCUGGCUGAUGGGUGACUCAGAGUGCAGGACUGCCUGGCCGUGGGGCAGAGGGGUUUGCCCUUCUCGGAGGGUACCUCCUGUUCCCUGUUGGAAUUCUCGGGUGCCAA | 0.443
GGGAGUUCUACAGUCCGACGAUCGGGAGUGGCCAGGCCAGAUUGAAGGUGAAUAUGGAGCAGUAGCAGAAGCCUCAUUCCAGAACCCAUCUGGCCAGAGAAGCAGCAGCAUCCUGGGGGAUGGCCGUGCAUGGUGGAAUUCUCGGGUGCCAA | 15.8
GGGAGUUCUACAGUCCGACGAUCCUGUGUACAAGUUCACUUGUUGUCUUGAACACUGUCUCAAAUACCUGCUUUUUGUUUUGGAUAGUACCUUGUCUGUAUAAGAAGCUGGCCUUUCCAUAGAGAGGCCCUGGUGGAAUUCUCGGGUGCCAA | 0.18
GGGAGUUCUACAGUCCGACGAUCGUACGUGUAUAUAAUUAUACAUAUAUAUAUAUCUAUUUUGCCCAGGUCUGGGUUUCGUUUUUACCCAGACCCUGGCACUCCCUGUCCACUGUGUGUGUGAUCAUGCUGGGUGGAAUUCUCGGGUGCCAA | 0.39

Study 3
Substance: PhoQ, residues 284 288 289 292 302 303 SSTLSG
Method: Sort-seq
Refers to: YFP reporter
Medium: E. coli
Setting: PhoQ-PhoP variant library
Added: 10 µM Mg2+
Reference: high Mg2+ state
Reading: higher = stronger signaling
target | fold induction
PhoP, residues 12 14 15 18 19 NQCAL (Escherichia coli, UniProt P23836) | 17.8
PhoP, residues 12 14 15 18 19 TQAML (Escherichia coli, UniProt P23836) | 21.9
PhoP, residues 12 14 15 18 19 LHTVL (Escherichia coli, UniProt P23836) | 7.67

Study 4
Target: Centromere-binding protein 1, full length, N-terminal tag (CBF1, Saccharomyces cerevisiae, UniProt P17106, residues 1-351)
UniProt P17106, sequence (whole entry, looked up): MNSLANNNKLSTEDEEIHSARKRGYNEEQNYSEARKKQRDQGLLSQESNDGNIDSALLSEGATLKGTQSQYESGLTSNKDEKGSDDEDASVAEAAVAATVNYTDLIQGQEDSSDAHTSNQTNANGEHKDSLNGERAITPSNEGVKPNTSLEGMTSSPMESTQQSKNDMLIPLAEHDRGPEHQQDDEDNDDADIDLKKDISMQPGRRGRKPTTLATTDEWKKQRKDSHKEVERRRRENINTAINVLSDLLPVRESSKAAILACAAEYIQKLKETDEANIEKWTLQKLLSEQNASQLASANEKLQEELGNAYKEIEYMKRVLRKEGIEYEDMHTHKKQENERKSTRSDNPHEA
Method: protein-binding microarray
Molecule type: double-stranded DNA, one strand shown
Medium: in vitro
Concentration: 0.8 µM
Setting: whole 60-bp probe, no competitor
Reading: higher = stronger binding
Strand | fluorescence intensity
GAATCGCCACAGAAGCGCGTGGACGCATGATCGTAGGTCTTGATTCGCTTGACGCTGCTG | 963 a.u.
CTAATATAGGGAATGCATGTGCACAATTGGTTTTTCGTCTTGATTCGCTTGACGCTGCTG | 614 a.u.
CTAGTTCGAGAACGTCAGGCATGATAGATGGTTTTCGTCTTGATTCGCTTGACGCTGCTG | 531 a.u.
GAAGAGAATACGTATCATCATATGATTTCCCCCTAGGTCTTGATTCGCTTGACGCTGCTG | 534 a.u.
CTAAAAATGAAGAAATGCGTGATCGGAAATTACTTCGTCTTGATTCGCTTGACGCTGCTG | 1070 a.u.
GAAACAAATAATCGTAACATCATCTCTGTCAAATAGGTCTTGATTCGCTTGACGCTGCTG | 509 a.u.
GAAAAATTATCAATTCTCCTGATCACTACTGGTTAGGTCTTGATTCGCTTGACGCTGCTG | 529 a.u.
GAAATGGTAAAAATAGTGATGGCGAAATGGGTCTAGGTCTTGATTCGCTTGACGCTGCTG | 500 a.u.
GAAGGTTCTCTGGAACAGCTGATGTCCCAGGTGTAGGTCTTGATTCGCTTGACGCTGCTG | 711 a.u.
CTAGATTAGTGCTTATGCCTGATGTACTGCCATTTCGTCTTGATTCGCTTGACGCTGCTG | 498 a.u.
CTACAGTTTGAAAGAAACGTGAAAATTATTTTTTTCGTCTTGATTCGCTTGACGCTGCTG | 623 a.u.
GAAAGGCAAAAAAGTTTCGTGACTGAACTTCTTTAGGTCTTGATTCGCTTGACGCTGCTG | 561 a.u.
